# Results from different studies.
# ± marks the error that the study gave. Where no end group is shown, it is not given here. [ ]: non-standard residue; d: D form. The star is where a group is joined.
# lethal factor mature: lethal factor mature (Bacillus anthracis, UniProt P15917)
# B1: motavizumab Fab; V domains shown; VH QVTLRESGPALVKPTQTLTLTCTFSGFSLSTAGMSVGWIRQPPGKALEWLADIWWDDKKHYNPSLKDRLTISKDTSKNQVVLKVTNMDPADTATYYCARDMIFNFYFDVWGQGTTVTVSS; VL DIQMTQSPSTLSASVGDRVTITCSASSRVGYMHWYQQKPGKAPKLLIYDTSKLASGVPSRFSGSGSGTEFTLTISSLQPDDFATYYCFQGSGYPFTFGGGTKVEIK
# B2: E2 DNA-binding domain 279-365 (HPV16, UniProt P03120); chain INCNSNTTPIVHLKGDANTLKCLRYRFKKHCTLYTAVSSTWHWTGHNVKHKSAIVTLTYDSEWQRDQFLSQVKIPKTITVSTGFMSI
# B3: vpr H78C (HIV-1, UniProt P12520); sequence looked up; chain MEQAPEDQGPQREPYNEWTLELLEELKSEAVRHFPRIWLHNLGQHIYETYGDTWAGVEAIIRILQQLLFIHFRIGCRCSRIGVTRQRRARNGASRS
# B4: RB1 pocket domain A-B, GSGS linker 372-577 (UniProt P06400); chain HTPVRTVMNTIQQLMMILNSASDQPSENLISYFNNCTVNPKESILKRVKDIGYIFKEKFAKAVGQGCVEIGSQRYKLGVRLYYRVMESMLKSEEERLSIQNFSKLLNDNIFHMSLLACALEVVMATYSRSTSQNLDSGTDLSFPWILNVLNLKAFDFYKVIESFIKAEGNLTREMIKHLERCEHRIMESLAWLSDSPLFDLIKQSKGSGSTSLSLFYKKVYRLAYLRLNTLCERLLSEHPELEHIIWTLFQHTLQNEYELMRDRHLDQIMMCSMYGICKVKNIDLKFKIIVTAYKDLPHAVQETFKRVLIKEEEYDSIIVFYNSVFMQRLKTNILQYAST
# B5: Alpha-bungarotoxin (Bungarus multicinctus, UniProt P60615); chain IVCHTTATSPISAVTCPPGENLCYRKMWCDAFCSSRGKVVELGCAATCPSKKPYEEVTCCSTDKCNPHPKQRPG
# Chain of UniProt Q9Y4B6 (whole entry, looked up): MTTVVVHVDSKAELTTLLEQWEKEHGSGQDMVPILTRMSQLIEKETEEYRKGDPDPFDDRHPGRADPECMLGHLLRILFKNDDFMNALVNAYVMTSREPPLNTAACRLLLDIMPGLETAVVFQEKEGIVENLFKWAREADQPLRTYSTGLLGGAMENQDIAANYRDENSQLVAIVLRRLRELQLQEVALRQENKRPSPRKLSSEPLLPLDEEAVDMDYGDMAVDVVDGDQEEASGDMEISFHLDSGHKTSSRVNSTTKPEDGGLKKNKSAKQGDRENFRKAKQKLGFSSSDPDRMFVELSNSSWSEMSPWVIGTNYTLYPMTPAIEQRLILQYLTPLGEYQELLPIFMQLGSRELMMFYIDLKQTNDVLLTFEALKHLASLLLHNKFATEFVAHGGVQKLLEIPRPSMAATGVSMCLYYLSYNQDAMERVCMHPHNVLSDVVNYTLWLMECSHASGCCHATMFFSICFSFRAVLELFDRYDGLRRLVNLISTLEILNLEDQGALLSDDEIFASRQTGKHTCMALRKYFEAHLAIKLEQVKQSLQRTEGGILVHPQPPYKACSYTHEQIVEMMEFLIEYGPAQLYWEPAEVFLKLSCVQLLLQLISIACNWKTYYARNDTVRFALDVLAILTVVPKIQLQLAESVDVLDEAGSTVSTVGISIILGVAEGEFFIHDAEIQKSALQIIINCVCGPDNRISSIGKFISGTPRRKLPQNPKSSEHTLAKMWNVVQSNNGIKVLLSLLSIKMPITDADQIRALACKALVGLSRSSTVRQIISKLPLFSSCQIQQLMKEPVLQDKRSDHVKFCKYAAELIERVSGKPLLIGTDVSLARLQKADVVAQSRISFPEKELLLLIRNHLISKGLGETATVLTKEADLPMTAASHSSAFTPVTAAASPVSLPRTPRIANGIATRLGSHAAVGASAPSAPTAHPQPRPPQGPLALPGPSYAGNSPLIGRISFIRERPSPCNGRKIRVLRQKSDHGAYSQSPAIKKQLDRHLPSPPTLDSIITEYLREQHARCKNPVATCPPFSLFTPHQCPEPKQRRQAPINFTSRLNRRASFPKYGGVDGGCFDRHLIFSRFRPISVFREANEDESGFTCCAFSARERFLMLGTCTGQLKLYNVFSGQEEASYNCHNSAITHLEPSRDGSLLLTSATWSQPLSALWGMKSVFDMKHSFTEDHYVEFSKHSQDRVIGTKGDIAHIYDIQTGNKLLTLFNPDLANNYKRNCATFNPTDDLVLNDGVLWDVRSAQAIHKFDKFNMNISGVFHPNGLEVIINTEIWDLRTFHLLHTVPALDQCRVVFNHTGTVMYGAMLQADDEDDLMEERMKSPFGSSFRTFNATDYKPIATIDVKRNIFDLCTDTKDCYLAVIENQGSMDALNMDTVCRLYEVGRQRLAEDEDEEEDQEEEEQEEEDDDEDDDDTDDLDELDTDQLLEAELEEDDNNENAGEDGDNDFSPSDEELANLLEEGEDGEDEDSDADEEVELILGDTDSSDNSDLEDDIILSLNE
# Chain of UniProt P22770 (whole entry, looked up): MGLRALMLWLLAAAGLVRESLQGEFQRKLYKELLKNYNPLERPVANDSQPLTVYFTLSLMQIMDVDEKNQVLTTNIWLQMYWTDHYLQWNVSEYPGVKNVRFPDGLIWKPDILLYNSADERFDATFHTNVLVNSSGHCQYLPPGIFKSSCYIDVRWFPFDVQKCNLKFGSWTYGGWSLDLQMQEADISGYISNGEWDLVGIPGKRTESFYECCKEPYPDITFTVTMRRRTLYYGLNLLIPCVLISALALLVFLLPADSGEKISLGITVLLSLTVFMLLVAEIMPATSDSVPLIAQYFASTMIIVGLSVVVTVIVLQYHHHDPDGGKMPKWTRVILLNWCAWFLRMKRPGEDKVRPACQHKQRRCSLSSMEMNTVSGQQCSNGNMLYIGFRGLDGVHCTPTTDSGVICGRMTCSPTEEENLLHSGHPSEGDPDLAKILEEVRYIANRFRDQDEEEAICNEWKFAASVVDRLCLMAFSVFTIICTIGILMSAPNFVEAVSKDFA
Substance,tested on,test,test system,conditions,how to read,endpoint,result
B1 (motavizumab Fab),RSV F peptide fragment,crystal structure,Fab,,,binding,binds
"CGUACGCGGAAUACUUCGAAA / UCGAAGTAUUCCGCGTACGUG (dsRNA; 5' phosphate, 3' overhangs, fluorescein-dT)","p19 1-172 (Carnation Italian ringspot virus, UniProt Q66104)",EMSA,,,,Kd,0.17 ± 0.03 nM
"QEDIIRNIARHLAQVGDSMDRSIPPG (BID 79-104 (Homo sapiens, UniProt P55957); sequence looked up)","BHRF1 1-160 (Epstein-Barr virus, UniProt P03182)",ITC,peptide,,,ΔH,4.3 ± 0.741 kcal/mol
TGCTACTCCTTGCATTGCCAGCGCCCGGCTCTTCCAGGCGCTCACCCCCGTGCCCGAGGGATTTCGGTTCGCATCCAGGCTGGCCCGACGGCTTTCCGGCGTTTCGTCGCCTCGGGAAGACACATCGGGTGATACCGGATTATAAAAGACTAATCCTACGTCTTTTAAAGATTTGTCCGATCTGCGGTGTCATGCAACTAGTGGCGTTGTGCCTTCCTTGACAAGCCTTGCGGCATGCCACAAGAATTTTGCCAACCTTTCGAGTCATCCAATATTCATCAATGGCTCCTACAAGATCCG (dsDNA (Pseudomonas aeruginosa)),mvfR fragment (Pseudomonas aeruginosa),EMSA,"double-stranded DNA, one strand shown",,,binding,no binding
"hsaC (Mycobacterium tuberculosis, UniProt P9WNW7)",Cc1ccc(O)c(O)c1CC[C@@H]1C(=O)CC[C@]2(C)[C@@H]([C@H](C)C(=O)SCCNC(=O)CCNC(=O)[C@H](O)C(C)(C)COP(=O)(O)OP(=O)(O)OC[C@H]3O[C@@H](n4cnc5c(N)ncnc54)[C@H](O)[C@@H]3OP(=O)(O)O)CC[C@@H]12,steady-state kinetics,,"pH 7.5, 25 °C",,Km,0.63 µM
"nitroalkane oxidase (Fusarium oxysporum, UniProt Q8X1D8)",CCCCCC[N+](=O)[O-],steady-state kinetics,,"pH 8, 30 °C, together with: O2",,Km,40 µM
"nsp16 (SARS-CoV-2, UniProt P0DTD1)",itself,cross-linking,,,,subunits per oligomer,2
B2 (E2 DNA-binding domain 279-365),"BRD4 long isoform, full-length, phosphorylated (Homo sapiens, UniProt O60885-1)",pull-down,,,,binding,binds
B3 (vpr H78C),"DCAF1 1046-1396 (Homo sapiens, UniProt Q9Y4B6)",crystal structure,,"pH 5.6, 16 °C, co-crystal with UNG2",,binding,binds
"H-[dR][dR][dR][dR][dR][dR][dR][dR][dR]VLR-{NHOH} (peptide; SMILES CC(C)C[C@H](NC(=O)[C@@H](NC(=O)[C@@H](CCCNC(=N)N)NC(=O)[C@@H](CCCNC(=N)N)NC(=O)[C@@H](CCCNC(=N)N)NC(=O)[C@@H](CCCNC(=N)N)NC(=O)[C@@H](CCCNC(=N)N)NC(=O)[C@@H](CCCNC(=N)N)NC(=O)[C@@H](CCCNC(=N)N)NC(=O)[C@@H](CCCNC(=N)N)NC(=O)[C@H](N)CCCNC(=N)N)C(C)C)C(=O)N[C@@H](CCCNC(=N)N)C(=O)NO; D-Arg residues 1-9, C-terminal hydroxamic acid; NHOH = ON*)",lethal factor mature,"enzyme activity, inhibitor, steady-state kinetics",peptide,,,Ki,1.45 nM
B4,"E7 (HPV16, UniProt P03129)",NMR,,,,binding,binds
[dR][dR][dR][dR][dR][dR][dR][dR][dR]VLR (peptide; D-Arg residues 1-9),lethal factor mature,"enzyme activity, inhibitor, steady-state kinetics",peptide,,,Ki,12.2 nM
DDLDALLADKE (PXN 2-10),E6 (UniProt P06931),SPR,peptide,,,koff,0.0017 s⁻¹
B5 (Alpha-bungarotoxin),"CHRNA7 (Gallus gallus, UniProt P22770)",radioligand binding,,,"relative to: wild type, higher = more total toxin binding",relative total binding,100%
BM2 transmembrane peptide (Influenza B virus),,"solid-state NMR, refers to: His19",VM+ membrane pellets,"243 K, membrane-bound tetramer, no drug, third protonation",,pKa,4.5

# Excerpt of the above:
Substance,tested on,test,test system,conditions,how to read,endpoint,result
B2 (E2 DNA-binding domain 279-365),"BRD4 long isoform, full-length, phosphorylated (Homo sapiens, UniProt O60885-1)",pull-down,,,,binding,binds
B3 (vpr H78C),"DCAF1 1046-1396 (Homo sapiens, UniProt Q9Y4B6)",crystal structure,,"pH 5.6, 16 °C, co-crystal with UNG2",,binding,binds
